Measured values gathered from unrelated publications.
Compare with care: the assays were run in different laboratories. Values joined by “and” are separate records of one study, mostly repeats; a detail may differ. Numbers after ± are the reported error.
Sequence of UniProt Q5T4S7 (whole entry, looked up): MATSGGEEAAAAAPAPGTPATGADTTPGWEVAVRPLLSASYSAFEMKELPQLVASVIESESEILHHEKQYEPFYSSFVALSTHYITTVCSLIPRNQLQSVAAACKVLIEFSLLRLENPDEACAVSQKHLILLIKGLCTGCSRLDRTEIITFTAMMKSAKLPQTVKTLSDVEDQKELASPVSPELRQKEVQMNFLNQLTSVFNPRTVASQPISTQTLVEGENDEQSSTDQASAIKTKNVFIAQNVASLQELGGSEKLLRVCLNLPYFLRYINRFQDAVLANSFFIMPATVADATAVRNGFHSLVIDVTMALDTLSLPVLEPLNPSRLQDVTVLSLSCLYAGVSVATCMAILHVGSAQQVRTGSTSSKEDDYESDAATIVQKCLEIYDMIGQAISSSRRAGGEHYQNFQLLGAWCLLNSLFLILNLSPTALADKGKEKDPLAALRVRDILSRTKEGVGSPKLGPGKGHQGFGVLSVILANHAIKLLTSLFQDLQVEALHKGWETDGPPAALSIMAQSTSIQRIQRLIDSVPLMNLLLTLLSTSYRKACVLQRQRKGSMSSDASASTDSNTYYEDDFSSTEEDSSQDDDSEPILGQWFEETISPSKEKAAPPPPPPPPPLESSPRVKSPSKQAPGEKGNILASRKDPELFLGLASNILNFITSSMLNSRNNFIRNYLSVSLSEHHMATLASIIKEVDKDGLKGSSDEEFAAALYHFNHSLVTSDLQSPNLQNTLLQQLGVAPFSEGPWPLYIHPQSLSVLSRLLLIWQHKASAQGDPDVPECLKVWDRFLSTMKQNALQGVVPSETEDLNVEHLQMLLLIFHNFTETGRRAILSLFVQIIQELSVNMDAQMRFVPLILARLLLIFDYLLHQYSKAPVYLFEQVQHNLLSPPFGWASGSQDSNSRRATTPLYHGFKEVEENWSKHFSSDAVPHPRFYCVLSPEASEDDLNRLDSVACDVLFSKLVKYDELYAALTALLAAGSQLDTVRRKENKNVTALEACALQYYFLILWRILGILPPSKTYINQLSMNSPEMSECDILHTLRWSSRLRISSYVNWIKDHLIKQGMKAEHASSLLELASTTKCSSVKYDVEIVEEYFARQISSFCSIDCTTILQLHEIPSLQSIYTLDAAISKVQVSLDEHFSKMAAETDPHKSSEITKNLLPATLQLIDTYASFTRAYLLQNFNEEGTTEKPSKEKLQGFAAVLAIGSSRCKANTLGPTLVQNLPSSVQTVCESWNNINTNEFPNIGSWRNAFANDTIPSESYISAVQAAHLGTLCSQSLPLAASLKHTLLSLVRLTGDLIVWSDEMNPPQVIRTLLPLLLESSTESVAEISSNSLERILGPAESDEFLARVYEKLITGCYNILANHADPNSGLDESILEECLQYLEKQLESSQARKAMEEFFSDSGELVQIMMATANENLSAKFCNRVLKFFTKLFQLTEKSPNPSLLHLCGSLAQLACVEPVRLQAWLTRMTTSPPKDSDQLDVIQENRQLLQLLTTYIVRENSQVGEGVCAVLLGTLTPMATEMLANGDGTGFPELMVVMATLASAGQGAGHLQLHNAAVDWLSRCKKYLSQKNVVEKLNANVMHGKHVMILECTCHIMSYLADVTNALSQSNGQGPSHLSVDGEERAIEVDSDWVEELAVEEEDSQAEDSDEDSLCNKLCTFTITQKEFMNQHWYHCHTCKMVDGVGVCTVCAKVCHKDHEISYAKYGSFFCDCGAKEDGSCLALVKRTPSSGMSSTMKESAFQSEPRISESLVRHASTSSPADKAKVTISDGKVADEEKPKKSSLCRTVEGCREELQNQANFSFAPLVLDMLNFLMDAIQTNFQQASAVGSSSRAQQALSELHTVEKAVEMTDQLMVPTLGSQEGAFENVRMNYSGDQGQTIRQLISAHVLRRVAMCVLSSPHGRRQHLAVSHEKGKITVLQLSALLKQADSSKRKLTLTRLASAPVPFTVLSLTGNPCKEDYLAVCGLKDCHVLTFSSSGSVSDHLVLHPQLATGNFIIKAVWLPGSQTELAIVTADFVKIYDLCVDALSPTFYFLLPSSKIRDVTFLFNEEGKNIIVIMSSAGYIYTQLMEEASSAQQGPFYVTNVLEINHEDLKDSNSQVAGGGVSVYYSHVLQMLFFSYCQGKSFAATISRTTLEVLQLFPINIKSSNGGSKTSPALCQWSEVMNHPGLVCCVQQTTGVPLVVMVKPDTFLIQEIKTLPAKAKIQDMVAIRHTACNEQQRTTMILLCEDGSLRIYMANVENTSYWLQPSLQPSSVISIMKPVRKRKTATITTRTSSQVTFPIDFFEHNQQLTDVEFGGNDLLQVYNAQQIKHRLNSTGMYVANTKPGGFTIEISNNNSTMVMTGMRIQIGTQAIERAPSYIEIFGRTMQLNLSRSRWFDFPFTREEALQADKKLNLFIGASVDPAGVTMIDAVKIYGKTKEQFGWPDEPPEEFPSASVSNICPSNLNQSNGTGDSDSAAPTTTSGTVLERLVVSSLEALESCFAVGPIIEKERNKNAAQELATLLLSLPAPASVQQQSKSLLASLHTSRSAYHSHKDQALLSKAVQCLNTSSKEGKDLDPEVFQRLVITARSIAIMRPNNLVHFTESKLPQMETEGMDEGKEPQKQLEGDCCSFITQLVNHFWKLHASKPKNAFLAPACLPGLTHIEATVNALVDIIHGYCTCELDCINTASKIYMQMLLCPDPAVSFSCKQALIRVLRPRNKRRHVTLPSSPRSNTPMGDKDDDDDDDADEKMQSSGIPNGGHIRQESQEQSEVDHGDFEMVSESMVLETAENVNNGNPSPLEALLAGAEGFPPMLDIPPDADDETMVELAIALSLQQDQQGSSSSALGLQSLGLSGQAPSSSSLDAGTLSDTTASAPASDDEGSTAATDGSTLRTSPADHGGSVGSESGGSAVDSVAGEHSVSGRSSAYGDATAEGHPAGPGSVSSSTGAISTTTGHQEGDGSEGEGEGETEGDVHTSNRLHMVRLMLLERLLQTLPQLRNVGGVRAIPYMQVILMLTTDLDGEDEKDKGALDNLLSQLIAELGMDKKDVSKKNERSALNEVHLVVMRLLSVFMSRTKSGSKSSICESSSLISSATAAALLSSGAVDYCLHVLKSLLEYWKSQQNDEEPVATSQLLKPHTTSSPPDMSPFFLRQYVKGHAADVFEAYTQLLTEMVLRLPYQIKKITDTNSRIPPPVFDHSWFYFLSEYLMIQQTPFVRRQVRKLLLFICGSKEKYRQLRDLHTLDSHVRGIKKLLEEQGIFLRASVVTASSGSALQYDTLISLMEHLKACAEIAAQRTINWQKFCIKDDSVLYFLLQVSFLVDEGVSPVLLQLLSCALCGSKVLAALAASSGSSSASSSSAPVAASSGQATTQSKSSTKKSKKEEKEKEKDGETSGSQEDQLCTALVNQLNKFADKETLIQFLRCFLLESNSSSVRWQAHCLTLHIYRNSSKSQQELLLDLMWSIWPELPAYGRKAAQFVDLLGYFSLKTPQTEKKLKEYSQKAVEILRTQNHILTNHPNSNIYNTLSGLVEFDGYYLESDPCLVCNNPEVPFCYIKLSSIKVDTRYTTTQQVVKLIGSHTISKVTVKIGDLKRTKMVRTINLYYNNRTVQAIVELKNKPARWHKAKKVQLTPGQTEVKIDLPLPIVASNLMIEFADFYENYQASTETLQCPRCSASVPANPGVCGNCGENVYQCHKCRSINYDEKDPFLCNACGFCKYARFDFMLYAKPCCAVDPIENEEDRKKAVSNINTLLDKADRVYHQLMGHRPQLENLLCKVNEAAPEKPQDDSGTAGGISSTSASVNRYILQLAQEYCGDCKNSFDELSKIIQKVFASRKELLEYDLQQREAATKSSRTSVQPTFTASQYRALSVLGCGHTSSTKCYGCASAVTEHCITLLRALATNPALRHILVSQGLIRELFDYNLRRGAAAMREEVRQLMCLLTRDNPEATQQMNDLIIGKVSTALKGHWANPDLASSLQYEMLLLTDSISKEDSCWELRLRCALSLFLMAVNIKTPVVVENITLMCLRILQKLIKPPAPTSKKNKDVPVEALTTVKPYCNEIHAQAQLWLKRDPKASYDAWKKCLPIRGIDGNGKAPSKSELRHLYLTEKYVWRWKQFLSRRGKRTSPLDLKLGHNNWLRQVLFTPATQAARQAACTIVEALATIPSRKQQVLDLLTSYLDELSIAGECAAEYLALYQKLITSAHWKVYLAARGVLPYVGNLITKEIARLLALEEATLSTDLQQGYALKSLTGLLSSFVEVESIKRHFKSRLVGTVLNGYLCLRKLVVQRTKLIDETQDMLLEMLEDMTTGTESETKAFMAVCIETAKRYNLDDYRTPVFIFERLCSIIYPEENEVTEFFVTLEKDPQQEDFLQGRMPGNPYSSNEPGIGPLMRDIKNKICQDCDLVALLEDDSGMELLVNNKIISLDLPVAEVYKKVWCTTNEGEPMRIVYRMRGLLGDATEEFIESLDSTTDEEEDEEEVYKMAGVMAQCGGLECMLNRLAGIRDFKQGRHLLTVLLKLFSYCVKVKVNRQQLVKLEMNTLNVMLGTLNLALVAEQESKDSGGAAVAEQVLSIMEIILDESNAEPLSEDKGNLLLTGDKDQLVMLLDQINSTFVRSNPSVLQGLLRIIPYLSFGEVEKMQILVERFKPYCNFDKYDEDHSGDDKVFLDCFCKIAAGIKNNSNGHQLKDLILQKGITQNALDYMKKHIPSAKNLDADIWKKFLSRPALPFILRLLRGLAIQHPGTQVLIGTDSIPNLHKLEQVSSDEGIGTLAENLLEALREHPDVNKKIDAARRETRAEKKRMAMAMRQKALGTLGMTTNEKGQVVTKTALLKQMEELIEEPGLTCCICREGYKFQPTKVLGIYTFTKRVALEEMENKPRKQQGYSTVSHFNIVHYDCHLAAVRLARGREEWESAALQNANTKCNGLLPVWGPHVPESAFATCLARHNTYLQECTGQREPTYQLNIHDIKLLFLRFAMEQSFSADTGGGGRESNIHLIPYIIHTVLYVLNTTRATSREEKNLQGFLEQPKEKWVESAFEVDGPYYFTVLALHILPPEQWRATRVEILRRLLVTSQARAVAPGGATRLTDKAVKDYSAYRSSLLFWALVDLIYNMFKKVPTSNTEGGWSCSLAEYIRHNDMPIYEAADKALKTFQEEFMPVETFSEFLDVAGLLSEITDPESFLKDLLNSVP

For `CC[C@H](C)[C@H](NC(=O)[C@H](CCC(=O)O)NC(=O)[C@H](CCCNC(=N)N)NC(=O)[C@H](CCCNC(=N)N)NC(=O)[C@H](CCCNC(=N)N)NC(=O)[C@H](CCC(N)=O)NC(=O)[C@H](CCCNC(=N)N)NC(=O)[C@H](CCCNC(=N)N)NC(=O)[C@H](CCCCN)NC(=O)[C@H](CCCCN)NC(=O)[C@H](CCCNC(=N)N)NC(=O)CNC(=O)[C@H](Cc1ccc(O)cc1)NC(C)=O)C(=O)N[C@@H](CC(=O)O)C(=O)N[C@@H](Cc1c[nH]cn1)C(=O)N[C@@H](CC(=O)O)C(N)=O`, “postsynaptic density thickness” read “decreased” (electron microscopy; db/db mouse, hippocampal CA1; intravenous, dose not given, weekly).
For `CCCCC/C=C\C/C=C\C/C=C\C/C=C\CCCC(=O)NCCO`, “time to peak effect” read 10 min (anti-allodynic effect, electronic von Frey; mouse, CFA inflammatory pain; i.p., 20 mg/kg).
With `CN1CCN(S(=O)(=O)c2cc([N+](=O)[O-])ccc2N(CCOS(C)(=O)=O)CCOS(C)(=O)=O)CC1` the T-C was > 316 days (NSG mice, T-ALL PDX sample F; intraperitoneal, 25 mg/kg, single mouse trial).
`COc1ccc(CCC2CCCC(CCc3ccc(OC)cc3)N2C[C@@H](O)CO)cc1.Cl` (stereo in doubt) gave a DOPAC overflow of 93.8 ± 32.2 pg/30 mL/mg (rat striatal slices; 1 µM, 30 min, no methamphetamine).
For `Cc1cn([C@H]2O[C@@H](CO[P@@](=O)(N[C@@H](C)C(=O)OC(C)C)Oc3ccccc3)[C@H](O)[C@H]2F)c(=O)[nH]c1=O`, “change in HBsAg” read -0.09 log10 IU/mL (adults with chronic hepatitis B; 50 mg, day 28; baseline: baseline).
For `C[C@H]1O[C@@H](O[C@H]2CC[C@@]3(C)[C@@H](CC[C@]4(C)[C@@H]3C=C[C@]35OC[C@@]6(CCC(C)(C)C[C@H]63)[C@@H](O)C[C@]54C)[C@]2(C)CO)[C@H](O)[C@@H](O[C@@H]2O[C@H](CO)[C@@H](O)[C@H](O)[C@H]2O)[C@H]1O`, the mRNA level was 0.16 and 0.191 and 0.168 and 0.1 (refers to: SCD-1; chronic-plus-binge ethanol-fed mice, AAV8-TBG-Null, liver; dose not given, high dose, unit not given; baseline: AAV8-TBG-Null ethanol group).
Under “time to 50% conversion”, `CC12C(=O)C(C)(C(c3ccccc3)=C1c1ccccc1)C1(Br)C(=O)N(CCNCCN)C(=O)C21.O=C(O)C(F)(F)F.O=C(O)C(F)(F)F` (stereo not shown) is recorded as 1920 min and 2300 min and 1960 min and 1570 min (HPLC, refers to: CO-release by-product; TRIS-sucrose buffer; pH 7.4, 4-5 °C).
`C[C@H]1CN(c2n[nH]c3nc(N[C@H]4CC[C@H](NS(=O)(=O)CCC(F)(F)F)CC4)ncc23)CCO1` gave a relative abundance of 1.22 (UBR4 (Homo sapiens, UniProt Q5T4S7); inhibitor, Kinobeads competition profiling; 20 µM; baseline: vehicle).
The urinary excretion of `C[C@]1(CO)Cc2ncn(-c3ccc(C#N)c(Cl)c3)c2C(=O)O1` is reported as 37.1 mmol (aldosterone synthesis, inhibitor, refers to: potassium; healthy Japanese adults, urine; 3 mg, 0-24 h at steady state, multiple rising dose).
The IC50 of `COc1cc(Nc2ncc(F)c(Nc3ccc4c(n3)NC(=O)C(C)(C)O4)n2)cc(OC)c1OC` is reported as > 10 µM (Cathepsin B (CTSB, Homo sapiens, UniProt P07858)).
For `Nc1nc(Cl)nc2c1ncn2[C@H]1C[C@H](O)[C@@H](CO)O1`, the maximum inhibition was 0% (human coronavirus OC43; virus-induced cell killing; MRC-5; maximum over 10 doses).
`CC(C)CCCCCCCCC[C@@H]1CC(=O)N[C@@H](CCC(=O)O)C(=O)N[C@@H](CC(C)C)C(=O)N[C@H](CC(C)C)C(=O)N[C@@H](C(C)C)C(=O)N[C@@H](CC(=O)O)C(=O)N[C@H](CC(C)C)C(=O)N[C@@H](CC(C)C)C(=O)O1` — result for “fusion time constant”: 26 ± 7 min (calcein leakage; DOPC/DOPG/CHOL liposomes; concentration not given, with: 40 mM CaCl2).
`CC[C@H](C)[C@@H]1NC(=O)[C@@H]2CCCN2C(=O)[C@H](CC(C)C)NC(=O)[C@H](CC(C)C)NC(=O)CNC(=O)[C@@H](NC(=O)[C@@H](NC(=O)[C@H](CC(=O)O)NC(=O)CNC(=O)[C@@H](NC(=O)[C@H](C)NC(=O)CNC(=O)[C@H](CCCCN)NC(=O)[C@H](CC(C)C)NC(=O)[C@H](CC(C)C)NC(=O)[C@H](CCCCN)NC(=O)CNC(=O)[C@@H](NC(=O)[C@@H](N)CC(C)C)C(C)C)C(C)C)C(C)C)CSSC[C@@H](C(=O)O)NC1=O` — result for “log2 fold change”: -0.896 (RNA-seq, refers to: Nt5dc2 mRNA; mouse traumatic brain injury, frontal cortex and hippocampus; dose not given; baseline: TBI plus compound vs TBI).
With `Cc1c(C(=O)O)ccc2c3n(nc12)[C@@H]1[C@H](C3)N(CC2CC2)[C@@]2(C(=O)Nc3cc(Cl)ccc32)[C@H]1c1cccc(Cl)c1F` the survival extension was > 5 fold (Rag1-/-Abcb1a-/-Abcg2-/- mouse, MDM2-amplified orthotopic PDX; 2 mg/kg; baseline: vehicle).
With `C[C@]12CC[C@H](O)C[C@H]1CC[C@@H]1[C@@H]2CC[C@]2(C)[C@@H](c3ccc(=O)oc3)CC[C@]12O` the tumour volume was 36.3 mm3 and 27.9 mm3 and 38.6 mm3 and 35.3 mm3 and 47.4 mm3 and 42.5 mm3 and 39.8 mm3 (female nude mouse LCC2 xenograft; 0.5 mg/kg, day 5, tamoxifen-resistant).
With `COc1cc(C(=O)NS(=O)(=O)c2ccccc2C)ccc1Cc1cn(C)c2ccc(NC(=O)OC3CCCC3)cc12` the inhibition was 7% (platelet aggregation; human platelet-rich plasma; 10 µM, 180 s, with: collagen; baseline: DMSO).
`O=C(O)/C=C/C(=O)O.Oc1cccc2[nH]cc(CCNCc3ccccc3)c12`: “body temperature change” 0.3 ± 0.2 °C (C57BL/6J mice; subcutaneous, 0.1 mg/kg; baseline: pre-session baseline).
The CR/CRi rate of `Cn1ncc(-c2nc(N[C@H]3CC[C@H](N)CC3)ncc2Cl)c1CC1CC1` is reported as 23% (phase I clinical trial; R/R AML or high-risk MDS patients, RUNX1-mutated; dose not given).
For `C[C@H](N)Cn1ncc2ccc3c(c21)CCCO3.Cl`, the ED50 was 0.05 mg/kg (DOM stimulus generalization; rat trained on DOM; intraperitoneal, 15 min pretreatment, training dose 1.0 mg/kg DOM).
`C/C=C1\NC(=O)C(C(C)O)NC(=O)C(CCCN)NC(=O)C(CCO)NC(=O)C(CCN)NC(=O)C(CCN)NC(=O)C(NC(=O)CC(O)CCCCCCCCCCC)COC(=O)C(C(O)CCl)NC(=O)C(C(O)C(=O)O)NC1=O` (stereo not shown) — result for “fusion time constant”: 5 ± 1 min (calcein leakage; DOPC/CHOL liposomes; concentration not given, with: 20 wt% PEG-8000).
For `CCCCC1(CCCC)CN(c2ccccc2)c2cc(SC)c(OCC(=O)N[C@@H](C(=O)NCC(=O)O)c3ccccc3)cc2S(=O)(=O)C1`, the serum LDL-C was 69.3 mg/dL (refers to: LDL cholesterol; human, serum; 20 mg once daily, day 11).
For `Cn1cccc1-c1cccnc1`, the inhibition was 32.1% (radioligand binding; rat brain; 50 µM, BZP site, PDSP screen).
`Cc1cn(-c2cc(NC(=O)c3ccc(C)c(Nc4nccc(-c5cccnc5)n4)c3)cc(C(F)(F)F)c2)cn1` — result for “ADAS-Cog maze time change”: 0.04 (human patients; dose not given, 6 months vs baseline, within treated group, unit not given; baseline: baseline).
`Cc1nc2ccc(CN(C)c3ccc(C(=O)N[C@@H](CCC(=O)O)C(=O)O)s3)cc2c(=O)[nH]1` gave a maximum inhibition of 0% (human coronavirus OC43; virus-induced cell killing; MRC-5; maximum over 10 doses).
`Cc1nc(Nc2ccc(CC(=O)O)cc2)nc(Nc2ccc(F)c(C(F)(F)F)c2)c1C`: “glucose tolerance AUC” “decreased” (C57BL/6J mouse, high-fat diet MASH model; intraperitoneal, 0.3 mg/kg daily, 60% fat diet for 12 weeks, dosed final four weeks, with: glucose 2 g/kg ip; baseline: untreated).

For quick reference, copied from above:
The urinary excretion of `C[C@]1(CO)Cc2ncn(-c3ccc(C#N)c(Cl)c3)c2C(=O)O1` is reported as 37.1 mmol (aldosterone synthesis, inhibitor, refers to: potassium; healthy Japanese adults, urine; 3 mg, 0-24 h at steady state, multiple rising dose).
For `C[C@H](N)Cn1ncc2ccc3c(c21)CCCO3.Cl`, the ED50 was 0.05 mg/kg (DOM stimulus generalization; rat trained on DOM; intraperitoneal, 15 min pretreatment, training dose 1.0 mg/kg DOM).
